Assay results of several laboratories.
Every numbered part comes from another study and shows a few of its results, in no order. Positions count from the first letter of the parent shown.

Sample 1
Target: CCNE2, cyclin fold, Cln2 fusion (human)
Method: yeast growth competition, sequencing
Matrix: yeast
Notes: weak parent motif
Baseline: not given
Reading: higher = stronger binding
Parent: ORC1 docking peptide (human); PRARKRLELGNLG; partner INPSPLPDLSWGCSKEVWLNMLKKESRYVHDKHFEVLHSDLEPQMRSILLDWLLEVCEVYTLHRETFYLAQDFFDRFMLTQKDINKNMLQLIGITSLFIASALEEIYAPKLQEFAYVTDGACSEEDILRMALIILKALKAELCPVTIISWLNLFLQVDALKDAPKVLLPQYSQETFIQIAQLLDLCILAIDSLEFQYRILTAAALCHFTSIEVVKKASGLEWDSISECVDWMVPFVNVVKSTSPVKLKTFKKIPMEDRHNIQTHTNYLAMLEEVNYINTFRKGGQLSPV
`A3E`: “normalised enrichment score” 1.38.
For `G13K`, “normalised enrichment score” read 0.938.
For `R6N`, “normalised enrichment score” read 0.00402.
`R6T`: “normalised enrichment score” 0.537.
`G10P` — result for “normalised enrichment score”: 0.0886.
For `L7Q`, “normalised enrichment score” read 0.676.

Sample 2
Substance: H2AC7 (Homo sapiens, UniProt P20671)
Method: cross-linking MS
Notes: hits only
For H3-7 (Homo sapiens, UniProt Q5TEC6): interaction screen read “cross-linked”.
H2BC20P (Homo sapiens, UniProt Q6DN03) — interaction screen: “cross-linked”.
For H2BC3 (Homo sapiens, UniProt P33778): interaction screen read “cross-linked”.

Sample 3
Target: Histone acetyltransferase KAT6A, both winged helices, GST fusion (KAT6A, Homo sapiens, UniProt Q92794, residues 1-181)
Method: protein binding microarray
Molecule type: double-stranded DNA, one strand shown
Matrix: in vitro
Tested at: not given
Notes: 8-mer, flanks averaged, mean of 2 arrays, mostly near background
Baseline: not given
Reading: higher = stronger binding
Residues (chain): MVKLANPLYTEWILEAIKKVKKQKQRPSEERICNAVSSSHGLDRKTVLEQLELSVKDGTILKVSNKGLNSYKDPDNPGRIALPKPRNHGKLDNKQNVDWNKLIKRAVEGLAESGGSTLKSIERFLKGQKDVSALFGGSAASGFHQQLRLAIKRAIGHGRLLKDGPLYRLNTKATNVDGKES
`GACTGGAC` gave an E-score of 0.0416.
`GACATAAA` has an E-score of 0.022.
`AGTGACCA` has an E-score of -0.305.
`ACGCTCAT` gave an E-score of 0.0516.
For `CTGACTGC`, the E-score was -0.0131.
For `CGGTTTCA`, the E-score was 0.153.
For `ATGCCTGG`, the E-score was -0.251.
The E-score of `AAACAGCA` is reported as -0.0584.
`ACATATCG` has an E-score of 0.0345.
For `CATGTAAG`, the E-score was -0.004.
For `GTAGGGGA`, the E-score was -0.171.
The E-score of `GGGGCGAA` is reported as -0.0359.

Sample 4
Target: RING finger protein unkempt homolog, zinc fingers 1-6, GST-SBP tag (UNK, Homo sapiens, UniProt Q9C0B0, residues 30-357)
UniProt Q9C0B0, sequence (30-357, looked up): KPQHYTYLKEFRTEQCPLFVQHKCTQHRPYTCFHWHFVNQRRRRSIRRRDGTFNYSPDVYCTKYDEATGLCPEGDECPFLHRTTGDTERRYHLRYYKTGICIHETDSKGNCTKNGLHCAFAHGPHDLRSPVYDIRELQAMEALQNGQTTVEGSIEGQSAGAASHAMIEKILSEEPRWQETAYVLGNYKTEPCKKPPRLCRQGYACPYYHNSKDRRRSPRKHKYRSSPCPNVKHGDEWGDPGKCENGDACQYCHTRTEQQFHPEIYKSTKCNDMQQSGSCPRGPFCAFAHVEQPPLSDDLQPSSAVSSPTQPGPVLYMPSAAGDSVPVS
Method: RNA Bind-n-Seq
Molecule type: RNA
Matrix: in vitro
Tested at: not given
Notes: RNA with constant flanks, ends assumed
Baseline: input RNA pool
Reading: higher = stronger binding
With `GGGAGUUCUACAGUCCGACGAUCAAAAGUGAAAUAACAUUAAAGGUGAAUGUGAGGCUUCUACUUUUAUCCAAAAGGAGCUAUAUCCGCCCGGCUGUUUCUGAUAUCCAAUCAUUGGUUUAACAAUAAAGGCAAUUUGUUUAACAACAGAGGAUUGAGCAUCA` the bound/input enrichment was 0.229 ratio.
The bound/input enrichment of `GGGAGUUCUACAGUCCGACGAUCCUGCCCUAGAAUUGUUAUGUUGGGCAUCACAGUCAUGAACUUUUGUUUUUCUCCCUUUUUCCGUUUUUUCAAAGAUGGGGGGAAGGGAAAUAUGAGCCUUUGUUGCUUUCAAAACGAGAACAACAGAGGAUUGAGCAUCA` is reported as 0.227 ratio.
With `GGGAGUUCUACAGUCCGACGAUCUAUAUCCUCUCCCUCUACCUGUAACAAUUUUGUUUUCUACUGUUAAUUACAUUGUGUAUUUACCGUUCUAUGCUUACUGUUGUGCAUAUACUGGCAAUAAAACUGUACAUAACAUUACUUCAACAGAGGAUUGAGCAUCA` the bound/input enrichment was 0.199 ratio.
`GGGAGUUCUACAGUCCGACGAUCGGAGGGUAUGGAGGCUAUGAUGACUAUGGUGGCUAUAAUGAUGGAUAUGGCUUUGGGUCUGACCGAUUUGGAAGAGACCUCAAUUACUGUUUUUCAGGAAUGUCUGAUCAUAGAUACGGACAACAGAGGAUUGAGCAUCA` gave a bound/input enrichment of 0.36 ratio.
`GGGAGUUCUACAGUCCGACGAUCACAGGAACAGGGCAGACGUUAGCGUGAGUGAUCACUCUCAAUCCCGGGGACCUGGUGGCCUCCGUCUUUCAGGUGGAACGGUGUGCGACAUGGGAAAGAAAACCAAGCGGACAGCUGACACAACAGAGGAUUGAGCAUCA` gave a bound/input enrichment of 0.404 ratio.

Mixed results
`PhoQ, residues 284 288 289 292 302 303 AGGCYF` has a fold induction of 13.1 (PhoP, residues 12 14 15 18 19 QWHVF (Escherichia coli, UniProt P23836); Sort-seq, refers to: YFP reporter; E. coli; PhoQ-PhoP variant library, with: 10 µM Mg2+; baseline: high Mg2+ state, higher = stronger signaling).

Repeated from above (sample 1):
`R6T`: “normalised enrichment score” 0.537.
`G10P` — result for “normalised enrichment score”: 0.0886.
